Assay results of several laboratories.
A part holds a random share of what one study measured.

Series 1
Target: Interferon regulatory factor 7, full length, phosphomimetic (IRF7, Homo sapiens, UniProt Q92985, residues 1-503, S101K/S471D/S472D/S475D/S476D/S477D/S483D/S484D/S487D)
Technique: protein-binding microarray
Form: double-stranded DNA, one strand shown
Sample: in vitro
Tested at: 250 nM
Notes: 60-bp whole probe
With: salmon DNA 0.4 mg/ml
Reference: random background probes
Direction: higher = stronger binding
Constant ends, left off below: GCCTAGCAC … GTCTTGATTCGCTTGACGCTGCTG
Construct (chain): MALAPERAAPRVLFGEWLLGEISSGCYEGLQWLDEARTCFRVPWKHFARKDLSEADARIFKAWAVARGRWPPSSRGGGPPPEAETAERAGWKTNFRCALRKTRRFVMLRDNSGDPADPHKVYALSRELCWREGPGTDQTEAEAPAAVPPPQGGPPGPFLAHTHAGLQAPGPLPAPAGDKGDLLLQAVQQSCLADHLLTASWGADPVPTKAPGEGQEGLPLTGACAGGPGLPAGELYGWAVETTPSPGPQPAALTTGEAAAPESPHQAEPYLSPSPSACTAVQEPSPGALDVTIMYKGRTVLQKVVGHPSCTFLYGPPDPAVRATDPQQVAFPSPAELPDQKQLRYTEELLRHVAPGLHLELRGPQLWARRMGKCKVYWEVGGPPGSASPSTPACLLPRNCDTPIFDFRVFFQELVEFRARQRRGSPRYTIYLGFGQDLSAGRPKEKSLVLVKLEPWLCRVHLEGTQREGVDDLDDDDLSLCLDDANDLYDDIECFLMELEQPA
Oligonucleotide	log fluorescence
TTAGGTATCGGGACTGGGTAAGTGCTA	0.0631 z-score
TCATCAATCATTTTAGTACTGTGCTAG	0.517 z-score
TTTGGTTTCGGTCTCGGTTAGTGCTAG	9.64 z-score
TTAGATCTCAGACTGAATTAGTGCTAG	-0.226 z-score
GACGGTTGCGACACTGGGGACGTGCTA	-0.53 z-score
TTAGGACTGGACTTCCGGTTAGTGCTA	-0.542 z-score
GACGGTATCGCCACTGGGGACGTGCTA	-0.56 z-score
GACGATATCAGTCTCGAGAGGTGCTAG	-0.215 z-score
TTGTTTTTCATTATTGTCTTGTGCTAG	1.9 z-score
TCAGGAGTCATTCTCAAACTGTGCTAG	-0.509 z-score
TTAGGACTGGACTATCGGTTTGTGCTA	0.0321 z-score
GACGGTGTCGGTTTCGGGACGTGCTAG	2.62 z-score
AGGTTGATGGCTCTCTGGACGTGCTAG	-0.888 z-score
GACGGTCACGGTTTCGGGACGTGCTAG	4.04 z-score
CACGGTATCGACTTTCGGGACGTGCTA	1.38 z-score
TCAAGTTTCTATTTTCTACTGTGCTAG	7.76 z-score
GACGGTCTCCTACAGCTGACGTGCTAG	-0.105 z-score
TTAGGTATCGACTTTCGGTTCGTGCTA	5.07 z-score
TACAGGATGGTTTTCAGAGAGTGCTAG	-0.282 z-score

Series 2
Target: Ras GTPase-activating protein-binding protein 1, C-terminal RGG region (G3BP1, Homo sapiens, UniProt Q13283)
Chain of UniProt Q13283 (whole entry, looked up): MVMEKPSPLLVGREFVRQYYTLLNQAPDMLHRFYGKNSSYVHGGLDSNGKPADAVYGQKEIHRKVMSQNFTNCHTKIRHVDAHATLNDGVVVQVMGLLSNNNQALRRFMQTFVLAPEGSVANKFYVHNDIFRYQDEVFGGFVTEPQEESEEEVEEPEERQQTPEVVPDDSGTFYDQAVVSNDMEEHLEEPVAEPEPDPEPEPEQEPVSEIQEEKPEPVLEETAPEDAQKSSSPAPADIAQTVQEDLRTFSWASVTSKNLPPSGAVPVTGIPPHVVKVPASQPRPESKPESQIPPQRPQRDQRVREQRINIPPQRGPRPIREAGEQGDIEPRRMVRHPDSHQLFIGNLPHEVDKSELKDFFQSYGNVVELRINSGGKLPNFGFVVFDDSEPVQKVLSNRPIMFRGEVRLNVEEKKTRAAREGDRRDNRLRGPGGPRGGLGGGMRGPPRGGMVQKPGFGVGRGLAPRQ
Technique: RNA Bind-n-Seq
Form: RNA
Sample: in vitro
Tested at: 1 µM
Notes: whole 134-nt RNA, ends assumed
With: 150 mM KCl
Reference: input library
Direction: higher = stronger binding
Constant ends, left off below: GGGAGUUCUACAGUCCGACGAUC … UGGAAUUCUCGGGUGUCAAGG
Oligonucleotide	log2 enrichment
AGUCCUGUGCUACACAUCGUAUGUACCGAAUCGGUUUUUGGUUUUUGGUUUUUGGGGAAAGUAUUAUGUUACGCCGUUCGGAUCUGCACU	-1.61
UGGCCCUGGUGGCAUGCGGGGAGGAAGAGGUGGCCUCAUGGAUCGUGGUGGUCCCGGUGGAAUGUUAAGAGGUGGCCGUGGUGGAGACAG	3.51
CACAGACAACACGCACCCACACAGACACAGAGGGAAGGGGUUGGGAUGGGGACAGGCUGCACAGCAGGGCGGGGUAGGACCCCAGCCCCU	-0.637
AGUCCUGUGCUACACAUCGUAUGUACCGAAUCAAAUUUUUAAACCCAAACCCCCAAAAAAGUAUUAUGUUACGCCGUUCGGAUCUGCACU	-1
UAGCUAAACUAAUGUCAACUUAUUUCCUUUUUUCCUUUAGCCACCAUCAAAGAACAGACGAGAGAGAACAGAACUGAAGCCUGAUUUCUU	-1.54
UGCGUGCUUGUGUCCUGGAGCUGGAAGAGCGGCUGAGCACGCAGGAGGGCUUGGUGCAAGAGCUUCAGAAAAAACAGGUGGAAUUGCAGG	-1.19
UCAAGUCCUGUGCUACACAUCGUAUGUACCGAAUCGGGUUUGGGAGGGUUUGGGAAAGUAUUAUGUUACGCCGUUCGGAUCUGCACUUCC	2.08
GUCCUGUGCUACACAUCGUAUGUACCGAAUCGGGGUUUUUGGGUUUUUGGUUUUUGGGGAAAGUAUUAUGUUACGCCGUUCGGAUCUGCA	-0.8
CCUCAAGUCCUGUGCUACACAUCGUAUGUACCGAAUCGGGUUGGUUGGUUGGGAAAGUAUUAUGUUACGCCGUUCGGAUCUGCACUUCCA	-1.02

Series 3
Target: RNA binding protein fox-1 homolog 2, RRM domain, GST-SBP tag (RBFOX2, Homo sapiens, UniProt O43251-10, residues 100-194)
Technique: RNA Bind-n-Seq
Form: RNA
Sample: in vitro
Tested at: 365 nM
Notes: natural RNA segment, single round, ends assumed
Reference: no-protein control
Direction: higher = stronger binding
Constant ends, left off below: GGGAGUUCUACAGUCCGACGAUC … UGGAAUUCUCGGGUGCCAA
Target sequence (chain): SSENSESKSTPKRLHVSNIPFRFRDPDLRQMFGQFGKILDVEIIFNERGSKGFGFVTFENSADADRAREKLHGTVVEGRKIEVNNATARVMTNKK
Oligonucleotide	RBNS enrichment (R)
AUCAGACCCUGAGAGGGGAAAAUCUUAAAGUAAAUUACAUUAAAUUAUCUGUGCAUUUCACACCAGGGAAAAUGACCUCCUUUUGGAAGUGUUUUAUGGCUGCUUUCUUU	0.495
CACUUUCUUUUCAAAGAAAUGUUAAUUAUUACAAAAAUUGACAUAGAUAUCUUUCCCAAACUUGGGGUAAAACCCAUGGUUAUGUGGAACAUAACUGUUCUUAAAAAGUC	0.337
AGAUUUUAAAAGUAACUAAAUAUACUUCAGCACUUUUUUGCUUUAAACUAGAUCAUCUUAGACUUGUUUAUACCUUCCAGAUUUGAUUGUUUUACUCCCAAUGACUGCAC	0.513
UGUCAACAGCCUUGGUUGAGGUGGGAAUGCAAUUGAUGGGAGCCUGCUGCUGUGUCCUUCUCUACUCUGUUCUGUCCGUGAGGGCUUUCCUUCUGUUGCCCCUCCCCCUC	1.32
CCUUGCUUGUCGGACCAAGGCAGCGAUGGUUGUGAUGAUGAUGGCUUGGUGAUAUCUGGGUAUGGCUCAGGGGAAACCUUUGACUCUAACCUGCCCCCUACUGAUGAUGA	0.576
UAGUUCCUGUCACCUGCCCUCUGGUGUGUCCCUUGGCAAAUCUCUAUAGGAGGCCAAGUGUUAGCUAUCCAGGGCCCCUCCACUGCUGCAGCCAGUGUGCUCUUGAAUAA	0.329
AAAGUAGACAUUUAUGUUCUAAUUAAUAUGAUUACAGAGAAGGCUUUUUCUCAGGUCAGGCUUUUCAUGAAAGUAUUUUGAGAACAAUGAAUUGCAAUAACCAGCUUCAC	0.444
CAGUAGAGUGGACACCUCGGCCGUGGCCACUUUAGAGGGGGAAAAGUUUAAGUUUUAAACUAAAAGUUACAGAAUUGAAUGUGGAUACCGGCUUCAUUCACCCCCACUUG	0.321

Series 4
Target: Phosphate system positive regulatory protein PHO4, full length, GST-tagged (PHO4, Saccharomyces cerevisiae, UniProt P07270, residues 1-312)
Technique: competition protein-binding microarray
Form: double-stranded DNA, one strand shown
Sample: in vitro
Tested at: 2 µM
Notes: whole 60-bp probe, lowest competitor level
With: Cbf1 competitor, 0.05 µM
Direction: higher = stronger binding
Constant ends, left off below: … GTCTTGATTCGCTTGACGCTGCTG
Target sequence (chain): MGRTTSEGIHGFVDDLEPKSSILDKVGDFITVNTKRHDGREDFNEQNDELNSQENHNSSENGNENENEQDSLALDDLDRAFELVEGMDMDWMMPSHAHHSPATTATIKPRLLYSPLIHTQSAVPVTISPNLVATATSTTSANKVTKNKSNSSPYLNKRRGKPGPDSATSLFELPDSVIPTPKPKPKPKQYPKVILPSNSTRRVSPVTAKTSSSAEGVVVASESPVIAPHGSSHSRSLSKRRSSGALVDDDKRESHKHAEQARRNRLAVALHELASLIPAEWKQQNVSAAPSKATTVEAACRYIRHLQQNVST
Oligonucleotide	fluorescence intensity [a.u.]
ATGAAGATTCTTGTTCATGTGATACAGCTTTTCTAG	5820
CGGGGTTAAGTTTGTCACGGTACTTGCTTGCAGCAG	5190
GAATAGAGGTGGTGAGTCGTGCGGAACGACGAACCT	7190
CTACGGATCGCATCGCACGTTTGTTTACAATTGATG	11600
CTTCTGTAAATTTGAATTGTGGGTGGACGCGCCCCG	4220
CGGGGTTAAGTTTGACTCGTGGGTGGCTTGCAGCAG	10300
CGTCCTAGTGATTGGGCGGTGGGTGCCATGAGGAAG	6470
TCGCAATATGAATATCACAGAAAAATTAGAGCAACA	2690
CCAGCAGAAACGCTACACGTGATGGTAATGGAACTA	14600
CTAACGAAGGTTTTTCACGTGTTTTACAAGCCAAGT	12900
AAATTACTAAGTTTTCACGTGGTGTACCCCGTATGA	15900
CTTCTGTAAATTTTTCACGTGCAGTGAAGCGCCCCG	13800
CTGCCAGTAAAGCAGAATGTGCGGGTCTTGTATCCA	5790
CGGGGTTAAGTTTGTAGCGTGGGTGGCTTGCAGCAG	6800
AAAGCGGTAATTTGCCAGGTGGGTGCAGATATCTAT	5130
CTAACGAAGGTTTGCGACGTGGGTGACAAGCCAAGT	6720
GTCTTGTCTCATTGCAGGGTGGGTGTCCCCACTTCA	4340
CGTCCTAGTGATTGGCTCGTGGGTGCCATGAGGAAG	10300
TTCGCCGATTCTAATCATGTGACGCCTTTTCCCCAG	6550

For quick reference, copied from above (series 2):
Oligonucleotide	log2 enrichment
AGUCCUGUGCUACACAUCGUAUGUACCGAAUCGGUUUUUGGUUUUUGGUUUUUGGGGAAAGUAUUAUGUUACGCCGUUCGGAUCUGCACU	-1.61
UGGCCCUGGUGGCAUGCGGGGAGGAAGAGGUGGCCUCAUGGAUCGUGGUGGUCCCGGUGGAAUGUUAAGAGGUGGCCGUGGUGGAGACAG	3.51
CACAGACAACACGCACCCACACAGACACAGAGGGAAGGGGUUGGGAUGGGGACAGGCUGCACAGCAGGGCGGGGUAGGACCCCAGCCCCU	-0.637
AGUCCUGUGCUACACAUCGUAUGUACCGAAUCAAAUUUUUAAACCCAAACCCCCAAAAAAGUAUUAUGUUACGCCGUUCGGAUCUGCACU	-1
UAGCUAAACUAAUGUCAACUUAUUUCCUUUUUUCCUUUAGCCACCAUCAAAGAACAGACGAGAGAGAACAGAACUGAAGCCUGAUUUCUU	-1.54
UGCGUGCUUGUGUCCUGGAGCUGGAAGAGCGGCUGAGCACGCAGGAGGGCUUGGUGCAAGAGCUUCAGAAAAAACAGGUGGAAUUGCAGG	-1.19
UCAAGUCCUGUGCUACACAUCGUAUGUACCGAAUCGGGUUUGGGAGGGUUUGGGAAAGUAUUAUGUUACGCCGUUCGGAUCUGCACUUCC	2.08
GUCCUGUGCUACACAUCGUAUGUACCGAAUCGGGGUUUUUGGGUUUUUGGUUUUUGGGGAAAGUAUUAUGUUACGCCGUUCGGAUCUGCA	-0.8
CCUCAAGUCCUGUGCUACACAUCGUAUGUACCGAAUCGGGUUGGUUGGUUGGGAAAGUAUUAUGUUACGCCGUUCGGAUCUGCACUUCCA	-1.02
